Measured values collected from several papers.
Lines come from different studies, so protocols differ. Several values in a cell are separate wells, animals, samples, runs or records. ± gives the spread as reported.

`CC(C)[C@H](NC(=O)[C@H](Cc1c[nH]c2ccccc12)NC(=O)[C@H](CCCNC(=N)N)NC(=O)[C@H](CCCNC(=N)N)NC(=O)[C@@H](NC(=O)[C@@H](NC(=O)[C@H](CCCNC(=N)N)NC(=O)[C@@H](NC(=O)[C@@H](NC(=O)[C@H](CCCNC(=N)N)NC(=O)[C@H](CCCNC(=N)N)NC(=O)[C@@H](NC(=O)[C@H](Cc1c[nH]c2ccccc12)NC(=O)[C@H](CCCNC(=N)N)NC(=O)[C@H](CCCNC(=N)N)NC(=O)[C@@H](NC(=O)[C@H](CCCNC(=N)N)NC(=O)[C@H](CCCNC(=N)N)NC(=O)[C@@H](NC(=O)[C@H](Cc1c[nH]c2ccccc12)NC(=O)[C@H](CCCNC(=N)N)NC(=O)[C@@H](N)CCCNC(=N)N)C(C)C)C(C)C)C(C)C)C(C)C)C(C)C)C(C)C)C(C)C)C(=O)N[C@@H](CCCNC(=N)N)C(=O)N[C@@H](CCCNC(=N)N)C(=O)O` has an organ weight of 0.87% (refers to: spleen; mice; intravenous, 30 mg/kg; reference: body weight).
For `CC(=O)NCCCC[C@@H]1NC(=O)[C@H](Cc2c[nH]c3c(C)cccc23)NC(=O)[C@H]([C@@H](C)O)NC(=O)[C@H](CC(N)=O)NC(=O)[C@@H](NC(C)=O)C(C)(C)SSC(C)(C)[C@@H](C(=O)N[C@@H](Cc2ccc(OCCN)cc2)C(=O)N[C@@H](Cc2ccc3ccccc3c2)C(=O)NC2(C(=O)N[C@@H](CCC(=O)O)C(=O)N[C@@H](CC(N)=O)C(=O)N[C@@H](Cc3cccnc3)C(=O)N(C)CC(N)=O)CCOCC2)NC1=O`, “blood to plasma ratio” read 0.84 ± 0.03 (rat, blood; 0.13 µM, 2 h).
For `O=C(NCc1ccc(Cl)cn1)C(=O)C(Cc1ccccc1)NC(=O)C1CC(F)CN1C(=O)C(NC(=O)C1CCC(F)(F)CC1)C1CCCCC1` (centres unmarked), the AUC(0-t) was 6870 ng·h/mL (dog; oral, 25 mg/kg).
The blood concentration of `C=Cc1c(C)c2cc3nc(c(CC(=O)O)c4[nH]c(cc5nc(cc1[nH]2)C(C)=C5CC)c(C)c4C(=O)O)[C@@H](CCC(=O)NCCCC[C@H](NC(C)=O)C(=O)N[C@@H](Cc1ccccc1)C(=O)N[C@@H](Cc1ccccc1)C(=O)N[C@H](C(=O)N[C@@H](CC(C)C)C(=O)N[C@@H](CCCCN)C(=O)N[C@@H](CO)C(=O)NCC(=O)N[C@@H](CCC(N)=O)C(=O)N[C@@H](Cc1ccc(O)cc1)C(=O)N[C@@H](C)C(=O)N[C@@H](CO)C(=O)N[C@@H](Cc1ccc(O)cc1)C(=O)N[C@@H](Cc1c[nH]cn1)C(=O)N[C@@H](CS)C(=O)N[C@@H](Cc1c[nH]c2ccccc12)C(=O)N[C@@H](CS)C(=O)N[C@@H](Cc1c[nH]c2ccccc12)C(=O)N[C@@H](CCCNC(=N)N)C(=O)N[C@@H](CC(=O)O)C(=O)N1CCC[C@H]1C(=O)NCC(=O)N[C@@H](CCCNC(=N)N)C(=O)N[C@@H](CO)C(=O)NCC(=O)NCC(=O)N[C@@H](CO)C(=O)N[C@@H](CCCCN)C(N)=O)C(C)C)[C@@H]3C` is reported as 99.2 µg/mL (mouse, blood; 6 h).
For `NC1CCN(C(=O)Oc2ccc(C3CCCC4(C3)OOC3(O4)C4CC5CC(C4)CC3C5)cc2)CC1` (racemic), the Tmax was 4.98 min (male ICR mice, plasma; intravenous, 10 mg/kg).
With `C#Cc1c(F)ccc2cc(O)cc(-c3ncc4c(N5CC6CCC(C5)N6C(=O)OC(C)OC(=O)CC5CCCC5)nc(OC[C@@]56CCCN5C[C@H](F)C6)nc4c3F)c12` (some centres unmarked) the compound remaining was 67.9% (chemical stability; simulated intestinal fluid; 1 µM, 30 min).
`O=C1NC2(CC2)COc2ncc(F)cc2[C@H]2COCCN2c2ccn3ncc1c3n2` — result for “organ-to-body weight ratio”: 0.354 ± 0.101% (Sprague-Dawley rat, female, spleen; oral, 20 mg/kg/day, 4 weeks, end of treatment).
For `CC(C)[C@@H]1NC(=O)CNC(=O)[C@H](CC(N)=O)NC(=O)[C@H](CCCNC(=N)N)NC(=O)[C@H](Cc2ccc(O)cc2)NC(=O)[C@H](C(C)C)NC(=O)[C@@H](NC(=O)[C@@H](NC(=O)[C@H](CC(N)=O)NC(=O)[C@H](Cc2c[nH]c3ccccc23)NC(=O)[C@H](C)NC(=O)[C@H](Cc2ccccc2)NC(=O)CNC(=O)[C@H](CCCCN)NC(=O)[C@H](Cc2ccccc2)NC(=O)[C@H](Cc2ccccc2)NC(=O)[C@H](CCCCN)NC(=O)OCC2c3ccccc3-c3ccccc32)C(C)C)CSSC[C@@H](C(=O)N[C@@H](Cc2c[nH]cn2)C(=O)N[C@@H](CCCNC(=N)N)C(=O)N[C@@H](CCCNC(=N)N)C(=O)N[C@@H](C)C(=O)N[C@@H](CC(N)=O)C(N)=O)NC(=O)[C@H](C(C)C)NC(=O)[C@H](CCCNC(=N)N)NC1=O`, the haemoglobin was 121 ± 3.3 g/L (ICR mouse, blood; intramammary, 10 mg/kg, day 5, 3 d dosing).
For `CC[C@H](C)[C@H](NC(=O)[C@H](Cc1ccc(O)cc1)NC(=O)[C@@H](NC(=O)[C@H](CCCNC(=N)N)NC(=O)[C@@H](N)CC(=O)O)C(C)C)C(=O)N[C@@H](Cc1c[nH]cn1)C(=O)N1CCC[C@H]1C(=O)O`, the Tmax was 18.8 ± 10.6 min (Beagle dogs, both sexes, plasma; subcutaneous, 10 mg/kg/day, day 27).
`CC(=O)N[C@H](C(=O)N[C@@H](CCCC(=O)OC(C)(C)C)C(=O)N[C@@H](CCC1CCCCC1)C(=O)N[C@@H](CC(=O)O)C(=O)COC(=O)c1c(C)cccc1C)C(C)(C)C` gave a blood concentration of 183 µM and 309 µM (C57BL/6N mouse, female, whole blood; intraperitoneal, dose not given, 8 h).
`CC(=O)c1c(C)c2cnc(Nc3ccc(N4CCNCC4)cn3)nc2n(C2CCCC2)c1=O` gave a total protein of 4.6 ± 1 g/dL (C57BL/6 mice, blood; 25 mg/kg, P25, dosed P10 to P24).
`N=C(N)NCCC[C@@H](NC(=O)[C@H](N)Cc1c[nH]c2ccccc12)C(=O)N[C@H](CCCCN)C(=O)N[C@H](Cc1c[nH]c2ccccc12)C(=O)N[C@H](CCCNC(=N)N)C(=O)N[C@H](CCCCN)C(=O)N[C@H](Cc1c[nH]c2ccccc12)C(=O)N[C@H](CCCNC(=N)N)C(=O)N[C@H](CCCCN)C(=O)N[C@H](Cc1c[nH]c2ccccc12)C(=O)N[C@H](CCCNC(=N)N)C(=O)N[C@H](CCCCN)C(N)=O` gave an organ index of 0.605 (mouse, heart; intravenous, 30 mg/kg single dose, 7 days).
`CCCCCCCCCCCCCCCC(=O)N[C@@H](CCC(=O)NCCOCCOCCC(=O)NCCOCCOCCC(=O)NCCCC[C@H](NC(=O)[C@H](CC(=O)O)NC(=O)[C@H](CC(C)C)NC(=O)[C@H](Cc1ccc(O)cc1)NC(=O)[C@H](CCCCN)NC(=O)[C@H](CO)NC(=O)[C@H](Cc1ccc(O)cc1)NC(=O)[C@H](CC(=O)O)NC(=O)[C@H](CO)NC(=O)[C@@H](NC(=O)[C@H](Cc1ccccc1)NC(=O)[C@@H](NC(=O)CNC(=O)[C@H](CCC(N)=O)NC(=O)[C@@H](CO)NC(=O)[C@@H](N)Cc1c[nH]cn1)[C@@H](C)O)[C@@H](C)O)C(=O)N[C@@H](CCCNC(=N)N)C(=O)N[C@@H](CCCNC(=N)N)C(=O)N[C@@H](C)C(=O)N[C@@H](CCC(N)=O)C(=O)N[C@@H](CC(=O)O)C(=O)N[C@@H](Cc1ccccc1)C(=O)N[C@H](C(=O)N[C@@H](CCC(N)=O)C(=O)N[C@@H](Cc1c[nH]c2ccccc12)C(=O)N[C@@H](CC(C)C)C(=O)N[C@@H](CC(C)C)C(=O)N[C@@H](CC(N)=O)C(=O)N[C@H](C(=O)NCC(=O)NCC(=O)N1CCC[C@H]1C(=O)N[C@@H](CO)C(=O)N[C@@H](CO)C(=O)NCC(=O)N[C@@H](C)C(=O)N1CCC[C@H]1C(=O)N1CCC[C@H]1C(=O)N1CCC[C@H]1C(=O)N[C@@H](CO)C(N)=O)[C@@H](C)O)C(C)C)C(=O)O`: “serum enzyme activity” 174 ± 38.7 U/L (refers to: ALP; Sprague-Dawley rat, male; subcutaneous, 500 µg/kg once daily, 14 days).
The total bilirubin of `CSCC[C@H](NC(=O)[C@@H](NC(=O)[C@H](CC(C)C)NC(=O)[C@@H](NC(=O)[C@H](Cc1c[nH]cn1)NC(=O)CCCCCNC(=O)[C@H](CCCNC(=N)N)NC(=O)[C@H](CCCNC(=N)N)NC(=O)[C@H](CCCNC(=N)N)NC(=O)[C@H](CCC(N)=O)NC(=O)[C@H](CCCNC(=N)N)NC(=O)[C@H](CCCNC(=N)N)NC(=O)[C@H](CCCCN)NC(=O)[C@H](CCCCN)NC(=O)[C@H](CCCNC(=N)N)NC(=O)CNC(=O)[C@@H](N)Cc1ccc(O)cc1)C(C)C)C(C)C)C(=O)N[C@@H](CS)C(=O)N[C@@H](C)C(=O)N[C@H](C(N)=O)[C@@H](C)O` is reported as 0.1 mg/dL and 0.2 mg/dL (C57BL/6J mice; Alzet osmotic pump, 3 mg/kg, 8 weeks).
`CC(C)(c1cc(Br)c(O)c(Br)c1)c1cc(Br)c(O)c(Br)c1`: “final permeate concentration” 6.54 nM (ultrafiltration; cow milk whey; 200 nM nominal in whole milk).
For `CC[C@H](C)[C@H](NC(=O)[C@H](C)NC(=O)[C@H](CCCCN)NC(=O)[C@H](CC(C)C)NC(=O)[C@@H](N)Cc1ccccc1)C(=O)N[C@@H](CCCCN)C(=O)N[C@@H](CCCCN)C(=O)N[C@@H](Cc1ccccc1)C(=O)NCC(=O)N[C@@H](CCCCN)C(=O)N[C@@H](CCC(=O)O)C(=O)N[C@@H](Cc1ccccc1)C(=O)N[C@@H](CCCCN)C(=O)N[C@@H](CCCCN)C(=O)N[C@H](C(=O)NCC(=O)N[C@@H](C)C(=O)N[C@@H](CCCCN)C(=O)N[C@@H](CC(C)C)C(=O)N[C@@H](CCCCN)C(=O)O)[C@@H](C)CC`, the hemolysis was 0.143% (human red blood cells; 0.5 mg/L, 1 h).
The tissue uptake of `CC[C@H](C)[C@H](NC(=O)[C@H](CCCCN)NC(=O)CNC(=O)[C@H](CC(C)C)NC(=O)[C@H](Cc1ccccc1)NC(=O)[C@H](CCCCN)NC(=O)[C@H](CO)NC(=O)[C@H](Cc1ccccc1)NC(=O)[C@H](Cc1c[nH]c2ccccc12)NC(=O)[C@H](CCC(N)=O)NC(=O)[C@@H](NC(=O)[C@H](Cc1ccccc1)NC(=O)CCCCCNC(=O)CN1CCN(CC(=O)O)CCN(CC(=O)O)CCN(CC(=O)O)CC1)C(C)C)C(=O)N[C@@H](CCC(=O)O)C(=O)N1CCC[C@H]1C(=O)N[C@@H](CC(=O)O)C(=O)N[C@H](C(=O)N[C@@H](CO)C(=O)N[C@@H](CCC(N)=O)C(=O)N[C@H](C(=O)N[C@@H](CCC(N)=O)C(=O)N[C@@H](CC(=O)O)C(=O)N1CCC[C@H]1C(=O)N[C@@H](CC(N)=O)C(=O)N[C@@H](CC(=O)O)C(=O)N[C@@H](CCC(N)=O)C(=O)N[C@@H](Cc1ccc(O)cc1)C(=O)N[C@@H](CCC(=O)O)C(=O)N1CCC[C@H]1C(=O)N[C@@H](Cc1ccccc1)C(=O)O)C(C)C)C(C)C` [copper-64 labelled] is reported as 3.78 ± 1.6 %ID/g (GZMB-/- mice, CT26 tumour-bearing, large intestine; 2 h, vehicle-treated).

For quick reference, copied from above:
For `CC(=O)NCCCC[C@@H]1NC(=O)[C@H](Cc2c[nH]c3c(C)cccc23)NC(=O)[C@H]([C@@H](C)O)NC(=O)[C@H](CC(N)=O)NC(=O)[C@@H](NC(C)=O)C(C)(C)SSC(C)(C)[C@@H](C(=O)N[C@@H](Cc2ccc(OCCN)cc2)C(=O)N[C@@H](Cc2ccc3ccccc3c2)C(=O)NC2(C(=O)N[C@@H](CCC(=O)O)C(=O)N[C@@H](CC(N)=O)C(=O)N[C@@H](Cc3cccnc3)C(=O)N(C)CC(N)=O)CCOCC2)NC1=O`, “blood to plasma ratio” read 0.84 ± 0.03 (rat, blood; 0.13 µM, 2 h).
For `O=C(NCc1ccc(Cl)cn1)C(=O)C(Cc1ccccc1)NC(=O)C1CC(F)CN1C(=O)C(NC(=O)C1CCC(F)(F)CC1)C1CCCCC1` (centres unmarked), the AUC(0-t) was 6870 ng·h/mL (dog; oral, 25 mg/kg).
